# Published values from different studies.
# Compare with care: the assays were run in different laboratories. Numbers after ± are the reported error.
SMILES,target,test,test system,conditions,how to read,quantity,value
CC(C)n1ccc2c(N3CCN(CCCCOc4ccc5c(c4)NC(=O)CC5)CC3)cccc21,"D(2) dopamine receptor, long isoform (DRD2, Homo sapiens, UniProt P14416)","β-arrestin2 recruitment, Tango",human cells,concentration not given,,activity,inactive
CC1=C(O)C(=O)C=C2C1=CC=C1[C@@]2(C)CC[C@@]2(C)[C@@H]3C[C@](C)(C(=O)NCCOCCOCCOCCOCC(=O)N[C@H](C(=O)N4C[C@H](O)C[C@H]4C(=O)N[C@@H](C)c4ccc(-c5scnc5C)cc4)C(C)(C)C)CC[C@]3(C)CC[C@]12C,"Nuclear receptor subfamily 4 group A member 1 (Nr4a1, Mus musculus, UniProt P12813)","degrader, immunoblotting",SM1 mouse melanoma,"concentration not given, 16 h",,protein level,decreased
COC(=O)c1ccc(CNC(=O)[C@@H]2C[C@@H](O)CN2C(=O)Cc2ccccc2)cc1,"von Hippel-Lindau disease tumor suppressor, with Elongin B/C (VHL, Homo sapiens, UniProt P40337)",isothermal titration calorimetry,,25 °C,,binding free energy (ΔG),-4.85 ± 0.02 kcal/mol
N#C/C(=C\c1cccc(-c2cn[nH]c2)c1)C(N)=O,"RPS6KA5 (Homo sapiens, UniProt O75582, C440V)","autophosphorylation, inhibitor",transfected COS-7,together with: PMA,,max non-inhibitory concentration,> 20 µM
CC[C@H](C)[C@H](NC(=O)[C@@H](NC(=O)[C@H](Cc1ccc(O)cc1)NC(=O)[C@H](Cc1ccc(O)cc1)NC(=O)[C@H](CC(N)=O)NC(=O)[C@H](CCC(=O)O)NC(=O)[C@H](Cc1ccccc1)NC(=O)[C@@H](NC(=O)[C@H](CO)NC(=O)[C@H](CCC(=O)O)NC(=O)[C@H](CCCCN)NC(=O)[C@H](Cc1ccccc1)NC(=O)[C@@H](N)CCCCN)C(C)C)C(C)C)C(=O)N[C@@H](Cc1ccc(O)cc1)C(=O)N[C@@H](CO)C(=O)N[C@@H](CO)C(=O)N[C@@H](CCSC)C(=O)N[C@@H](CC(C)C)C(=O)N[C@@H](Cc1ccc(O)cc1)C(=O)N[C@@H](CCCNC(=N)N)C(N)=O,"Fibroblast growth factor 14 (Homo sapiens, UniProt Q92915)",,,,,kon,16900 ± 810 M⁻¹ s⁻¹
Clc1ccccc1C(Nc1nccs1)(c1ccccc1)c1ccccc1,"Gap junction alpha-8 protein (Gja8, Mus musculus, UniProt P28236)",,N2a,10 µM,,activity,active
CN(C1COC1)C(C)(C)/C=C(\C#N)C(=O)N1CCC[C@H]1Cn1nc(-c2ccc(Oc3ccccc3)cc2F)c2c(N)ncnc21,"Tyrosine-protein kinase (Rattus norvegicus, UniProt Q5S255)",,"rat, PBMC","oral, 40 mg/kg, 6 (unit not given)",,receptor occupancy,82 ± 5%
CCN(CC)C(=O)C1CCCN(C(=O)Nc2ccc3nc(-c4ccco4)c(-c4ccco4)nc3c2)C1 (stereo not drawn),"PPIA (Homo sapiens, UniProt P62937)",tryptophan fluorescence quenching,,"6 µM PPIA, together with: ciclosporin 40 µM",,50% occupancy concentration,13.1 µM
CC1=C(C)C(Oc2c(F)cc3c(C)cc(=O)oc3c2F)OC1=O (racemic),"D14 (Arabidopsis thaliana, UniProt Q9SQR3)","substrate, measured: DiFMU release",,,,kcat/K1/2,417 M⁻¹ s⁻¹
CCOCCNC(=O)N1CCC[C@H](c2n[nH]c(-c3ccccc3)n2)C1,"Aromatase (CYP19A1, Homo sapiens, UniProt P11511)","enzyme activity, inhibitor, MFC to HFC conversion",,"20 µM, together with: MFC substrate",,apparent Km,57.6 µM
COc1cc(OC)cc(-c2nc(Nc3nc4ccccc4o3)ncc2C#N)c1,"Grm5 (Rattus norvegicus, UniProt P31424)","calcium mobilization, negative allosteric modulator",,together with: glutamate EC80,reference: maximal glutamate response,maximal response,24 ± 10%
CNc1ccccc1C(=O)O[C@H]1C[C@H](n2cnc3c(N)ncnc32)O[C@@H]1COP(=O)(O)OP(=O)(O)O,"Unconventional myosin-Va (Gallus gallus, UniProt Q02440, D297C/G292C/I296C/S293C/V295G)",van't Hoff analysis,,"concentration not given, together with: EDTA",,∆G of ligand binding,-7 ± 0.1 kcal/mol

# Some of these lines once more:
SMILES,target,test,test system,conditions,how to read,quantity,value
N#C/C(=C\c1cccc(-c2cn[nH]c2)c1)C(N)=O,"RPS6KA5 (Homo sapiens, UniProt O75582, C440V)","autophosphorylation, inhibitor",transfected COS-7,together with: PMA,,max non-inhibitory concentration,> 20 µM
CC[C@H](C)[C@H](NC(=O)[C@@H](NC(=O)[C@H](Cc1ccc(O)cc1)NC(=O)[C@H](Cc1ccc(O)cc1)NC(=O)[C@H](CC(N)=O)NC(=O)[C@H](CCC(=O)O)NC(=O)[C@H](Cc1ccccc1)NC(=O)[C@@H](NC(=O)[C@H](CO)NC(=O)[C@H](CCC(=O)O)NC(=O)[C@H](CCCCN)NC(=O)[C@H](Cc1ccccc1)NC(=O)[C@@H](N)CCCCN)C(C)C)C(C)C)C(=O)N[C@@H](Cc1ccc(O)cc1)C(=O)N[C@@H](CO)C(=O)N[C@@H](CO)C(=O)N[C@@H](CCSC)C(=O)N[C@@H](CC(C)C)C(=O)N[C@@H](Cc1ccc(O)cc1)C(=O)N[C@@H](CCCNC(=N)N)C(N)=O,"Fibroblast growth factor 14 (Homo sapiens, UniProt Q92915)",,,,,kon,16900 ± 810 M⁻¹ s⁻¹
